# Results of several laboratories.
# Parts stem from different laboratories: compare values within a part only.

# Sample 1
# Target: RNA binding protein fox-1 homolog 2, RRM domain, GST-SBP tag (RBFOX2, Homo sapiens, UniProt O43251-10, residues 100-194)
# Method: RNA Bind-n-Seq
# Molecule type: RNA
# Matrix: in vitro
# Concentration: 365 nM
# Notes: natural RNA segment, single round, ends assumed
# Baseline: no-protein control
# Direction: higher = stronger binding
# All sequences stand within: GGGAGUUCUACAGUCCGACGAUC … UGGAAUUCUCGGGUGCCAA
# Construct (chain): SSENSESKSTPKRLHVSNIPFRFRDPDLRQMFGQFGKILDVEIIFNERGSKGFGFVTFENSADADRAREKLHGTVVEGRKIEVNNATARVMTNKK
Sequence,RBNS enrichment (R)
CUUCUUUAUGGCAACAGGAGGAGAAAGCAAGGCCCAGGAGAGGAGGCCUCCAAGGCAGAAGCUAUUGGGAGCCUCCCUGAUGCUCCUCAGCCUCUUAGAGAGGAGCCCUU,0.282
CUGUUAUUACCCCGUCUCCUCUGCCAUUUUCUACAGCUUGCUGAGUUGUCAUUCCUUUGCAACAUUAAAAUACAUGCUGAACUCAUAUUUUUCCUUCCUUCACUGUUGUA,1.27
CAGCUCUCCACACGCAGGGACUUUAUUUGGGGACAUCUGUCACCUUUGGGGUUGCCAUGGCCAAUGAGAUUUAUAAUCAUGAUCCUCUUGGGUGGUAGUUCCAAAGACAC,0.281
AUGAAAAUCCCUAAUUAUAUAGUUUUAUAUAAUGUGUAUACAGAGUAGGAUUGUUGAUGAAAUUGAGCGGUUGGAACACCCUCAUGGAACACUGGCAACAUGGAAUGUAG,0.78
AGCCCUGCUGGGGUCCAACUGACCUGGGACCAGGUGUCGCGCAGAGAUGUGCCUCAUUCUGUGCCUCCUUCUGUGCCUCCUACCAUGUUCCCUUUAACUGUGCCUCAGUG,0.256
CUCUGGGAAGUCAGCUCUGCCGGCCCGAGAGGGGCGGGCACUUUUUCAGCUUGCUAUAACCCCUUCCCCAUACCUCCAGGCAGGGUUGGAAAUGAAGGACUUUUUUAACC,0.362
AAUUUAACUGGCUUUUAAAUAUCCCCUUCCGCUGAUAUUUGUUGUCAGCUGCCUACAGUUUAAUAUGCAGCGUUCACAAAACAGCUGCCAGUGCUACAAUUAAUGAAGCA,0.303
CUACUUGGGAGGCUGAGGCAGGAGAAUCGCUUGACUCCAGGAGGCGCAGGCUGCAGUGAGCUCUGAUGGUACCACUGCACUCCAGCCUGGGUGACAGAGCGAGACCCUGU,0.335

# Sample 2
# Target: Fragile X messenger ribonucleoprotein 1, C-terminal low-complexity region (Fmr1, Mus musculus, UniProt P35922)
# Method: RNA Bind-n-Seq
# Molecule type: RNA
# Matrix: in vitro
# Concentration: 200 nM
# Notes: whole 134-nt RNA, ends assumed
# With: 150 mM KCl
# Baseline: input library
# Direction: higher = stronger binding
# All sequences stand within: GGGAGUUCUACAGUCCGACGAUC … UGGAAUUCUCGGGUGUCAAGG
Sequence,log2 enrichment
GUCCUGUGCUACACAUCGUAUGUACCGAAUCGGGAAAAAGGGAAAGGGAAAAAAAGGGAAAGUAUUAUGUUACGCCGUUCGGAUCUGCAC,-0.34
CACAGACAACACGCACCCACACAGACACAGAGGGAAGGGGUUGGGAUGGGGACUGGGUGCACAGCAGGGCGGGGUAGGACCCCAGCCCCU,1.38
UGGGAGGUGGAUUUUGUUUAUUUUUUUAGCUCAUUUCCAGGAGUGGGAAUUUUUUUUUAAUAUGUGUCAUGAAUAAAGUUGUUUUUGAAA,0.0249
UAACUUUAGAGGAGGAUCUGAUGGAUAUGGCAGUGGACGUGGAUUUGGGGAUGGCUAUAAUUGGUAUGGAGGAGGACCUGGAGGUGGCAA,0.168
CAAGUCCUGUGCUACACAUCGUAUGUACCGAAUCGGUUUGGAAAGGUUUUUUUGGAAAGUAUUAUGUUACGCCGUUCGGAUCUGCACUUC,-0.678
AAGUCCUGUGCUACACAUCGUAUGUACCGAAUCGGGAAAAGGGGAAAAGGAAAAGGAAAGUAUUAUGUUACGCCGUUCGGAUCUGCACUU,-0.636
UCCUGUGCUACACAUCGUAUGUACCGAAUCGGUUUUUUUGGUUUUUUUGGUUUUUUUGGGAAAGUAUUAUGUUACGCCGUUCGGAUCUGC,-0.123
CCUGUGCUACACAUCGUAUGUACCGAAUCGGUUUUUUUGGUUUUUUUGGUUUUUUUGGGGAAAGUAUUAUGUUACGCCGUUCGGAUCUGC,-0.809
CCUGUGCUACACAUCGUAUGUACCGAAUCGGGGUUUUUUGGGUUUUUUGGUUUUUUGGGGAAAGUAUUAUGUUACGCCGUUCGGAUCUGC,-0.389

# Sample 3
# Target: Prothrombin, mature alpha-thrombin (F2, Homo sapiens, UniProt P00734)
# Method: aptamer microarray, sandwich
# Molecule type: DNA with 2'F-ANA
# Matrix: in vitro
# Concentration: 200 nM
# Notes: whole 15-mer aptamer, many near background
# With: Cy3 exosite-II aptamer, 400 nM
# Direction: higher = stronger binding
# Sequence: GGTTGGTGTGGTTGG
Modification,mean fluorescence intensity [a.u.]
2'F-ANA at 3 5 7 8 9 10 11 12 14 15,53.4
2'F-ANA at 2 4 7 8 9 11 14,104
2'F-ANA at 1 4 5 6 9 10 11 13 14 15,62.2
2'F-ANA at 3 5 6 7 8 10 13 15,60.3
2'F-ANA at 3 4 5 7 11 12 14,55.7
2'F-ANA at 9 11 12 15,635
2'F-ANA at 1 3 4 6 7 8 10 12,87.2
2'F-ANA at 1 2 3 5 6 8 9 11 13,57.1
2'F-ANA at 2 3 5 7 8 10 11 12,59.4
2'F-ANA at 4 5 7 9 14,44.4
2'F-ANA at 4 5 6 7 9 10 14 15,61.9
2'F-ANA at 1 2 4 6 10 11 12 13 15,90.8
2'F-ANA at 3 6 8 9 10 12 13 14,329
2'F-ANA at 1 2 3 4 5 7 8 9 10 14,66.7
2'F-ANA at 1 3 5 7 10 11 14 15,45.4
2'F-ANA at 2 3 11 12 13,953
2'F-ANA at 1 2 4 5 6 7 8 12 13 15,85.1
2'F-ANA at 1 3 7 9 13 14 15,128
2'F-ANA at 2 3 5 6 7 8 9 11 12 15,189
2'F-ANA at 3 4 5 8 12 14 15,69.4
2'F-ANA at 1 2 4 6 8 11 15,110

# Sample 4
# Target: Interferon regulatory factor 5, full length, phosphomimetic (IRF5, Homo sapiens, UniProt Q13568-2, residues 1-514, K96S/S451D/S453D/S456D/S462D)
# Method: protein-binding microarray
# Molecule type: double-stranded DNA, one strand shown
# Matrix: in vitro
# Concentration: 250 nM
# Notes: 60-bp whole probe
# With: salmon DNA 0.4 mg/ml
# Baseline: random background probes
# Direction: higher = stronger binding
# All sequences stand within: GCCTAGCAC … GTCTTGATTCGCTTGACGCTGCTG
Sequence,log fluorescence
TCAGCTTCCTAATTCTCACTGTGCTAG,0.651 z-score
GACGATATCGGGACTGGAGAAGTGCTA,0.933 z-score
GGCGATATCAGTATCGAGACGTGCTAG,3.24 z-score
TGCCTTTTGCTTTACTGATGGTGCTAG,0.761 z-score
TTAGATCTCAGACTGGACTAGTGCTAG,-0.302 z-score
TTAGATTTCAGTTTCAATTAGTGCTAG,5.7 z-score
GACGGTTTCGGGTATCGGGAAGTGCTA,8.65 z-score
TGAAAATTAGTGTTTGCCCTAGTGCTA,0.82 z-score
GTGTTTCTCAACCATTTTGTTGTGCTA,1.09 z-score
GACGGTTTTGGTATCGGGACGTGCTAG,3.42 z-score
GACGGTATCGGTCTCGGAACGTGCTAG,5.65 z-score
GAAGGTTTCCTTCTCCTGACGTGCTAG,0.799 z-score
GACGGACTGGGGACTCGGGACGTGCTA,-0.643 z-score
TTAGGTTTCTGTTTCGGTTAGTGCTAG,9.85 z-score
CTTGCTTCCTAATTCTCTTTGTGCTAG,0.31 z-score
CCTTATCCCTAATCTCAGCCTGTGCTA,-0.109 z-score
GACGGTTTCGGCACTGGGGACGTGCTA,4.9 z-score
TTAGGTTCCGGTTTAGGTTAGTGCTAG,2.57 z-score
GACGGACTGGGGACAGGGGACGTGCTA,-0.524 z-score

# For quick reference, copied from above (sample 2):
Sequence,log2 enrichment
AAGUCCUGUGCUACACAUCGUAUGUACCGAAUCGGGAAAAGGGGAAAAGGAAAAGGAAAGUAUUAUGUUACGCCGUUCGGAUCUGCACUU,-0.636
UAACUUUAGAGGAGGAUCUGAUGGAUAUGGCAGUGGACGUGGAUUUGGGGAUGGCUAUAAUUGGUAUGGAGGAGGACCUGGAGGUGGCAA,0.168
CAAGUCCUGUGCUACACAUCGUAUGUACCGAAUCGGUUUGGAAAGGUUUUUUUGGAAAGUAUUAUGUUACGCCGUUCGGAUCUGCACUUC,-0.678
UGGGAGGUGGAUUUUGUUUAUUUUUUUAGCUCAUUUCCAGGAGUGGGAAUUUUUUUUUAAUAUGUGUCAUGAAUAAAGUUGUUUUUGAAA,0.0249
CCUGUGCUACACAUCGUAUGUACCGAAUCGGGGUUUUUUGGGUUUUUUGGUUUUUUGGGGAAAGUAUUAUGUUACGCCGUUCGGAUCUGC,-0.389
CACAGACAACACGCACCCACACAGACACAGAGGGAAGGGGUUGGGAUGGGGACUGGGUGCACAGCAGGGCGGGGUAGGACCCCAGCCCCU,1.38
